Published values pooled from the literature.
Every numbered part comes from another study and shows a few of its results, in no order. Positions count from the first letter of the parent shown.

Block 1
Target: ABI1, truncated, D143A, DHFR fusion (Arabidopsis thaliana)
Technique: DHFR PCA, deep sequencing
Matrix: yeast
Setting: methotrexate growth selection, single substitutions
Together with: (+)-ABA 0.032 µM
Baseline: wild-type fitted maximum
Direction: higher = stronger binding
Quantity: relative binding score
Parent: PYL1, truncated, DHFR fusion (Arabidopsis thaliana); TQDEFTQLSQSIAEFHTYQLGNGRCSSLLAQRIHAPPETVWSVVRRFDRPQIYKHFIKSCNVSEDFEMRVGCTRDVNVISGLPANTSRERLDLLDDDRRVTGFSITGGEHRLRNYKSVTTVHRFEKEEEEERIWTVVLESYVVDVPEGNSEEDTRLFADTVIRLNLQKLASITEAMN; partner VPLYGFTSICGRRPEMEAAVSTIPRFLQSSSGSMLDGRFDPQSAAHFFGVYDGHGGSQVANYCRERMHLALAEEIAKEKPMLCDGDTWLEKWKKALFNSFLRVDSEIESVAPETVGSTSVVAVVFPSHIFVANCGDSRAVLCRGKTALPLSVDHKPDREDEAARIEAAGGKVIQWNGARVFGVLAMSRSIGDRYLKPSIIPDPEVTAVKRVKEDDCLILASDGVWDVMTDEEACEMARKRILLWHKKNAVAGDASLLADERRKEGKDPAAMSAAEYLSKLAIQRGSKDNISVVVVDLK
D92M: 1.42%
R88W: -3.06%
G81T: 33.4%
P146D: 3.34%
E109A: 1.94%
E38T: 4.42%
S11F: 11.6%
V142N: -5.36%
A13D: 17.5%
T17S: 17.4%

Block 2
Target: RNA binding protein fox-1 homolog 2, RRM domain, GST-SBP tag (RBFOX2, Homo sapiens, UniProt O43251-10, residues 100-194)
Technique: RNA Bind-n-Seq
Form: RNA
Matrix: in vitro
Concentration: 365 nM
Setting: natural RNA segment, single round, ends assumed
Baseline: no-protein control
Direction: higher = stronger binding
Quantity: RBNS enrichment (R)
Constant ends, left off below: GGGAGUUCUACAGUCCGACGAUC … UGGAAUUCUCGGGUGCCAA
CAUUAACAUGGUAAAGAUUGUAUGAAAUACCUGUUUUUCAAAAAAAUAAAAAUAAAGGUUCAAGUCUAAAAAGAUAACAGUAUCUAAGCUCUGAAUUUAUUGAAGUAGAU: 0.715
CCGCCUGGAUGGACUGAGGAAUCGUGGGCCAGGCUGCACCUGGGAUUCCUUGCGGAAUUCUGUGGGAGAAAAGAUCCUAUCCCUUCGCAGUUGCUCCGUGGGCUCUCUAG: 0.642
CUGGAACUCAAUCAGUAGAUGCCCAGAGAUGAUGUGCCUGCCUCUGCCGUCCAAUGCUGGGAUUGAAGGUGUGCACAGCCACACCAGCUUAAGGUUUUGUUAAAGAAGAC: 1.36
AGAACGGAACCAAAGCUGGGCACCGACUUCUCAUGGAUGCCAGGAACCUGGUCCUCGGGGAAAAAGAGAAGUCACCUUUGGACCUUCGACCUAGCUUUGUCUUUGCCCCA: 0.926
GGGCUGCAAGAGCAAAGAGGAAUAUCGUCUAAAGAUUUCUCUAUAUAUUUAAAACCCACAACUAAAACACAUCUGCAUAAUAGUGUUUGUUUGUUGAGAGGAUUUCCUGA: 0.976
ACUCCCCUCUUGAUUUUCUAUCUUGAUUUAUCCUGCAGGCAUGUCCUACCUUUUGACAUUGUGACUUGGCUUUGUUAAAAACUUGCAAAAAAAAUCAUGUUUUAAAUGUU: 4.2
AAAAGCCUAGACAAACAUUUUGUCAGAACCUUGCGAAAUGCCAAGGUAUUACCAGUAAAUUGGUUGUAUAUACAAUAAAAUUGCACCCUUUUUUUAAACAAAACAAACUA: 0.741
UGUGCCUUAAGAGACUACAGAGUCAAAGCUCAUUUUUAAAGGAGUAGGACAAAGUUGUCACAGGUUUUUGUUGUUGUUUUUAUUGCCCCCAAAAUUACAUGUUAAUUUCC: 0.666
UAGUCUGGGUGGUGAACGGGCUGACACUGCUGUCACUGGUUCUUAGGACCUAAGGUGGUCCUCAUAAACUCCUGGGGGAAGCUGGGAGCAACUUCCUGGGAAGCUAAUUU: 0.584
UGACGGUGUGUGUGAGAGAGUGGUGGGGCGGGGUGAGAAAUUCUCUGUCCUUUUGUCUACACAUGCGUGCUGACCUUACCUGUGAGUCCACUGCCUUCGUGAAGGAUGCU: 0.446
ACUAAAAUCAUUUGUCUAAAAAUUUAAGUUGUUUUCAAAUAAAAAUUAAAAUGCAUUUCUGAUAUGCCUGAUUGUGUUGCCUCCAGCUUUUUUUGCUCUCUAUGAGUGAC: 0.392
GUCCUGGGCAGGCAGAGCUGGGGUUGGCCUGAUCCCACCUGCCUUGCUCUUGGAAAGGACAUCAGGUGUGGGCAAAGCAUCCUUGAAGCCCAGACAACACAGGCAUGGCC: 1.4

Block 3
Target: CCNB1, cyclin fold, Cln2 fusion (human)
Technique: yeast growth competition, sequencing
Matrix: yeast
Setting: weak parent motif
Baseline: not given
Direction: higher = stronger binding
Quantity: normalised enrichment score
Parent: CDKN1B docking peptide (human); PSACRNLFGPVDH
PSACRNNFGPVDH [L7N]: 0.24
PSACRNLFGPQDH [V11Q]: 0.397
PSACKNLLGPVDH [R5K F8L]: 0.181
PSACRGLFGPVDH [N6G]: 0.106
PSACRNLFGPVAH [D12A]: 0.684
PSACRNLFGPVFH [D12F]: 0.298
PSAPRNLFGPVDH [C4P]: 0.441
PSACANLFGPVDH [R5A]: -0.24
PSACCNLFGPVDH [R5C]: -0.149
PSACRNLFGPVHH [D12H]: 0.41
PSACRNLFGPVPH [D12P]: 0.444
PSACRNLFEPVDH [G9E]: 0.59
PSACENLFGPVDH [R5E]: 0.646
PSACRNQFGPVDH [L7Q]: 0.18
PSACRNLFGPVDL [H13L]: -0.0371
PSACRNLFGPVDK [H13K]: 0.8
PSACRNLFWPVDH [G9W]: 0.321
PSACRNLFGPVIH [D12I]: 0.503

Further values, each from its own experiment
PhoQ, residues 284 288 289 292 302 303 SCEHLI  fold induction (PhoP, residues 12 14 15 18 19 NIMAP (Escherichia coli, UniProt P23836); Sort-seq, item: YFP reporter; E. coli; PhoQ-PhoP variant library, together with: 10 µM Mg2+; baseline: high Mg2+ state, higher = stronger signaling): 0.678

Some of these lines once more (block 2):
UGUGCCUUAAGAGACUACAGAGUCAAAGCUCAUUUUUAAAGGAGUAGGACAAAGUUGUCACAGGUUUUUGUUGUUGUUUUUAUUGCCCCCAAAAUUACAUGUUAAUUUCC: 0.666
UAGUCUGGGUGGUGAACGGGCUGACACUGCUGUCACUGGUUCUUAGGACCUAAGGUGGUCCUCAUAAACUCCUGGGGGAAGCUGGGAGCAACUUCCUGGGAAGCUAAUUU: 0.584
CCGCCUGGAUGGACUGAGGAAUCGUGGGCCAGGCUGCACCUGGGAUUCCUUGCGGAAUUCUGUGGGAGAAAAGAUCCUAUCCCUUCGCAGUUGCUCCGUGGGCUCUCUAG: 0.642
GGGCUGCAAGAGCAAAGAGGAAUAUCGUCUAAAGAUUUCUCUAUAUAUUUAAAACCCACAACUAAAACACAUCUGCAUAAUAGUGUUUGUUUGUUGAGAGGAUUUCCUGA: 0.976
AGAACGGAACCAAAGCUGGGCACCGACUUCUCAUGGAUGCCAGGAACCUGGUCCUCGGGGAAAAAGAGAAGUCACCUUUGGACCUUCGACCUAGCUUUGUCUUUGCCCCA: 0.926
ACUAAAAUCAUUUGUCUAAAAAUUUAAGUUGUUUUCAAAUAAAAAUUAAAAUGCAUUUCUGAUAUGCCUGAUUGUGUUGCCUCCAGCUUUUUUUGCUCUCUAUGAGUGAC: 0.392
